Results from different studies.
Compare with care: the assays were run in different laboratories. ± gives the spread as reported.
Methoprene-tolerant protein with Taiman: Methoprene-tolerant protein, with Taiman (Drosophila melanogaster, UniProt O44118)
NPR2: Atrial natriuretic peptide receptor 2 (NPR2, Homo sapiens, UniProt P20594)
Chain of UniProt P20594 (whole entry, looked up): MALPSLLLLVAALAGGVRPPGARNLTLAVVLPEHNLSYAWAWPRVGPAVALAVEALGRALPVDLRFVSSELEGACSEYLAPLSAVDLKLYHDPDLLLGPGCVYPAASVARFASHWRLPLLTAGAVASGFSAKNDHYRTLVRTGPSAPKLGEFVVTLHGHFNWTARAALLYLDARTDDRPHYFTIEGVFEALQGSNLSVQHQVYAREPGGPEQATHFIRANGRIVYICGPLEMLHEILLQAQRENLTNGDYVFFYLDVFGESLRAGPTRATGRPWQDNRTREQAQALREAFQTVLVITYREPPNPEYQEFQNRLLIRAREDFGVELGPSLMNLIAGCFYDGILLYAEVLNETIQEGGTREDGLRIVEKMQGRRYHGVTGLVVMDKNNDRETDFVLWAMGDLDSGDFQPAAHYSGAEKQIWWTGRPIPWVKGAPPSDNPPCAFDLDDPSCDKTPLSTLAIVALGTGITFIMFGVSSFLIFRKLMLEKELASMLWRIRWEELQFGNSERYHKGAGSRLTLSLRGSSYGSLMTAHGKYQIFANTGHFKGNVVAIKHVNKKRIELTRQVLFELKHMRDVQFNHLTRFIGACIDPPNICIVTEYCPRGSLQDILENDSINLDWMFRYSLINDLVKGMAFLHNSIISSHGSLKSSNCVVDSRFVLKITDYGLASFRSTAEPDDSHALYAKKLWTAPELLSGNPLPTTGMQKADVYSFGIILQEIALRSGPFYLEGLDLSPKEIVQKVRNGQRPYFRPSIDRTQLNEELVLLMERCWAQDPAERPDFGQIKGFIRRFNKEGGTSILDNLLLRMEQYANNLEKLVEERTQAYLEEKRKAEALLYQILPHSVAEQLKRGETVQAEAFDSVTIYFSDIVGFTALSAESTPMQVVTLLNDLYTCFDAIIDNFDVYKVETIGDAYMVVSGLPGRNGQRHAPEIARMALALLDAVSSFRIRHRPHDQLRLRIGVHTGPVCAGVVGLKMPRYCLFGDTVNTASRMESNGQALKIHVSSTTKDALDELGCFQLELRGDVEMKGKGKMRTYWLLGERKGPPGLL
Chain of UniProt P35414 (whole entry, looked up): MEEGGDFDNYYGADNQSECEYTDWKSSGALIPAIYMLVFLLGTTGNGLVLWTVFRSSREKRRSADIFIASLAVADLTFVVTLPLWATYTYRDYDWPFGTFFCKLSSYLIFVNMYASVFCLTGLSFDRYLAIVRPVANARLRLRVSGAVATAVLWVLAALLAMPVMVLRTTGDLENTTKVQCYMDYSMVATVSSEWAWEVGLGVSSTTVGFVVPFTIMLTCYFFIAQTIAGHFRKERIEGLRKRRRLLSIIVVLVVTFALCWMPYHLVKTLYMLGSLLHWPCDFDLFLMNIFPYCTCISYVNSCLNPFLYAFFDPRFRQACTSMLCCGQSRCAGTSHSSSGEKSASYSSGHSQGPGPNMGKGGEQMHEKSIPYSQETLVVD
Chain of UniProt P25116 (whole entry, unmodified, looked up): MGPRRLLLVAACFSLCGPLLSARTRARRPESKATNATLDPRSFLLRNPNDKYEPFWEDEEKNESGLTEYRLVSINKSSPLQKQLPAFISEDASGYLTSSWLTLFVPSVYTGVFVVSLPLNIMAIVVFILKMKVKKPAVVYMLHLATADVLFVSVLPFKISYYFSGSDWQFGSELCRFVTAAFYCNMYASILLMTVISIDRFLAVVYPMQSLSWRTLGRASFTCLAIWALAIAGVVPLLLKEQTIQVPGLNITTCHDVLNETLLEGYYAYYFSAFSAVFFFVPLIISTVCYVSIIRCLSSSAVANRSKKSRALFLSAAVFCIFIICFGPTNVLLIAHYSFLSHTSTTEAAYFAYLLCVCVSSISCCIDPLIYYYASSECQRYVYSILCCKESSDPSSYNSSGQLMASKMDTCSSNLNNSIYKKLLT
Chain of UniProt P06401 (whole entry, looked up): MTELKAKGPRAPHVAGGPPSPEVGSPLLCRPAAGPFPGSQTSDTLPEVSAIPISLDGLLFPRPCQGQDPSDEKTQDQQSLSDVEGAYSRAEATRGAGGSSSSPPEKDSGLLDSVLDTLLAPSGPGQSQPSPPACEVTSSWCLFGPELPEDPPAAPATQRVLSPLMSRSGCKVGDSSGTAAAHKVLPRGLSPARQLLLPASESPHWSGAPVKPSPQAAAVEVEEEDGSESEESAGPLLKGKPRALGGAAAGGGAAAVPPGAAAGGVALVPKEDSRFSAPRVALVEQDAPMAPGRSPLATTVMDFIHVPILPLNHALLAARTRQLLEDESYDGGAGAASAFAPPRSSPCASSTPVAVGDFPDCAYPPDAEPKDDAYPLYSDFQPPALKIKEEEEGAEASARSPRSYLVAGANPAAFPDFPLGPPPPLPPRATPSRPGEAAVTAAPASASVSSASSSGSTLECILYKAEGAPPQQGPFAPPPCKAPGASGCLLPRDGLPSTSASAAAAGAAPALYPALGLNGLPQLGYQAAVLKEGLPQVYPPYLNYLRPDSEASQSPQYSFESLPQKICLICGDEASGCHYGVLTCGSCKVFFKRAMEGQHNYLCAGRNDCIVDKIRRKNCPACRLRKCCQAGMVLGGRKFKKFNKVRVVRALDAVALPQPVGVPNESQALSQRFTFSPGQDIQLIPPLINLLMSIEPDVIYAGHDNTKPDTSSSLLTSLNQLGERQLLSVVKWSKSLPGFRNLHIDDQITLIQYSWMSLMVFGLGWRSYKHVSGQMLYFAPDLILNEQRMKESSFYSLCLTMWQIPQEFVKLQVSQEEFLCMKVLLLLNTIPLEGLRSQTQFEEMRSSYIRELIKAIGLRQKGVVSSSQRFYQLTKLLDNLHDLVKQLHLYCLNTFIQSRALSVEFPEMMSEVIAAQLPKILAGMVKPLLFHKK
Chain of UniProt Q86XQ3 (whole entry, looked up): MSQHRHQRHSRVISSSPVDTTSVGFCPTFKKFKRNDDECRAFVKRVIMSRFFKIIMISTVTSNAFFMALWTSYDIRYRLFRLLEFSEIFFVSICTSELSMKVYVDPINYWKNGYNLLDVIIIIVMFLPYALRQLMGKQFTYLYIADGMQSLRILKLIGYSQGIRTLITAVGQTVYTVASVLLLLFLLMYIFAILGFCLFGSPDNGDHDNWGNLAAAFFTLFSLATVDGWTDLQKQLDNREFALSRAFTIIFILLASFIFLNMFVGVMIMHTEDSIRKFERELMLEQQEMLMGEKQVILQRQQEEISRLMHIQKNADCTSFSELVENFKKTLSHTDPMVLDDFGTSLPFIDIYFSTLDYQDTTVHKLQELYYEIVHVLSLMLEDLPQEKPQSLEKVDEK
Chain of UniProt P43088 (whole entry, looked up): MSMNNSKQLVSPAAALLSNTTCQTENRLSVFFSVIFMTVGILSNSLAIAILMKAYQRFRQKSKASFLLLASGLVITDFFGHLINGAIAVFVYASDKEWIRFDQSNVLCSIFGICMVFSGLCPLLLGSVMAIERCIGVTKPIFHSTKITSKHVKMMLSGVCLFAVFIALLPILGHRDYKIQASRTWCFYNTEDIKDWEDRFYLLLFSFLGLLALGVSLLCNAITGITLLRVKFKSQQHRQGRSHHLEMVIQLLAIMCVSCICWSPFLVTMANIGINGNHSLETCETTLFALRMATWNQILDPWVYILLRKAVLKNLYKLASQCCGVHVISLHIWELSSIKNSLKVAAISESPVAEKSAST
Chain of UniProt Q7RTX7 (whole entry, looked up): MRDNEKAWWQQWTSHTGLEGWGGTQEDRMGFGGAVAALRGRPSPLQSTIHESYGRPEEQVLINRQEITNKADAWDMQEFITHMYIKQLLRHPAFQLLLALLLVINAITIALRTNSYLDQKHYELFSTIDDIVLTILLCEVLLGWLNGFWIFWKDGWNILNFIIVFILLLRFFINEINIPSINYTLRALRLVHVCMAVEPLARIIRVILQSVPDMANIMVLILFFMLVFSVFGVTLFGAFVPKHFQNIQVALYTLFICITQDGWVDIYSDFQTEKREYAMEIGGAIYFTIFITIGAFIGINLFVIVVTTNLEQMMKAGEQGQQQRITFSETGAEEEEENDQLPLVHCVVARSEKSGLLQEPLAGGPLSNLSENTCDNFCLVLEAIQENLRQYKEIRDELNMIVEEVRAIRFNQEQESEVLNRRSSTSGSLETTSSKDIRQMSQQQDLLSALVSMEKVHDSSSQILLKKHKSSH
Chain of UniProt O95136 (whole entry, looked up): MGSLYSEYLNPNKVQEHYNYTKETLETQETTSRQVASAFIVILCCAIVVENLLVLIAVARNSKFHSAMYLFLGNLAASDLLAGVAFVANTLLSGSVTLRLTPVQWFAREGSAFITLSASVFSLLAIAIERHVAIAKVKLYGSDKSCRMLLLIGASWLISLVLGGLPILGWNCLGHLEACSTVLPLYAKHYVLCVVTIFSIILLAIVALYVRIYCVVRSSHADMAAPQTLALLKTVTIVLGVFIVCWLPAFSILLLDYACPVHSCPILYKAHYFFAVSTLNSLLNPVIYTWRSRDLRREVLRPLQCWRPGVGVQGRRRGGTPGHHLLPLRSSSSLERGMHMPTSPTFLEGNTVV
Chain of UniProt P25106 (whole entry, looked up): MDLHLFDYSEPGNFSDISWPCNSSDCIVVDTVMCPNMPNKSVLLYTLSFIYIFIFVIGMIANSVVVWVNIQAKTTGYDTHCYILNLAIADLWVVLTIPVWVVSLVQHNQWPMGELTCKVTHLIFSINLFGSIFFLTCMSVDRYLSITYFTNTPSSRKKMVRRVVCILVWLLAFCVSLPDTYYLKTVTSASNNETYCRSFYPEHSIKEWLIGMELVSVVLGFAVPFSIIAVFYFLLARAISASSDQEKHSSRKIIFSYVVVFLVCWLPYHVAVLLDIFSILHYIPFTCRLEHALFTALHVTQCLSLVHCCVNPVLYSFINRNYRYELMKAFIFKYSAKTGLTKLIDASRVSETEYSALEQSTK

With `N=C(N)NCCC[C@H](NC(=O)[C@H](CC(=O)O)NC(=O)[C@@H]1CSCCC(=O)NCC(=O)N[C@@H](Cc2c[nH]cn2)C(=O)N[C@H](Cc2ccccc2)C(=O)N[C@@H](CCCNC(=N)N)C(=O)N[C@@H](Cc2c[nH]c3ccccc23)C(=O)N1)C(=O)N[C@@H](Cc1ccccc1)C(=O)NCC(N)=O` the EC50 was 2.5 µM (MC5R (Homo sapiens, UniProt P33032); cAMP, agonist).
`COc1ccc(N2CCC(NC(=O)C3CC3C)CC2)cc1` (stereo not drawn) gave an EC50 of > 100 µM (Methoprene-tolerant protein with Taiman; reporter gene, agonist; HEK293T expressing Drosophila Met/Tai; 24 h).
The EC50 of `CCCCC/C=C\C/C=C\CC1OC1C/C=C\CCCC(=O)O` (stereo not drawn) is reported as 32.7 µM (TRPA1 (Homo sapiens, UniProt O75762); calcium signal, agonist, fluorescence).
For `CCOC(=O)CCN1CCN(C(=S)c2ccc(-c3cc(Cl)ccc3Cl)o2)CC1`, the EC50 was 2.53 µM (NPR2; cGMP production, positive allosteric modulator, cGMP HTRF; HEK293 expressing human GC-B; added: CNP at EC30).
For `CSCC[C@H](NC(=O)[C@@H]1CCCN1C(=O)CNC(=O)[C@H](CCCCN)NC(=O)[C@H](Cc1c[nH]cn1)NC(=O)[C@H](CO)NC(=O)[C@H](CC(C)C)NC(=O)[C@H](CCCNC(=N)N)NC(=O)[C@@H]1CCCN1C(=O)[C@H](CCCNC(=N)N)NC(=O)[C@H](CCC(N)=O)NC(=O)[C@H](CCCNC(=N)N)NC(=O)[C@H](CCCNC(=N)N)NC(=O)[C@H](Cc1ccccc1)NC(=O)[C@H](CCCCN)NC(=O)[C@H](CCCNC(=N)N)NC(=O)[C@H](CCCNC(=N)N)NC(=O)CNC(=O)CNC(=O)[C@H](CCC(N)=O)NC(=O)[C@H](Cc1c[nH]c2ccccc12)NC(=O)[C@@H]1CCCN1C(=O)CNC(=O)[C@@H]1CCCN1C(=O)CNC(=O)[C@H](CC(N)=O)NC(=O)[C@H](CCCNC(=N)N)NC(=O)[C@H](CO)NC(=O)CNC(=O)[C@H](CCCNC(=N)N)NC(=O)[C@@H]1CCCN1C(=O)[C@H](CCC(N)=O)NC(=O)[C@@H](NC(=O)[C@@H](N)CC(C)C)C(C)C)C(=O)N1CCC[C@H]1C(=O)N[C@@H](Cc1ccccc1)C(=O)O`, the EC50 was 0.00518 ± 0.00065 µM (Apelin receptor (APLNR, Homo sapiens, UniProt P35414); β-arrestin-2 recruitment, agonist, BRET; HEK293; 15 min).
With `S=C(c1ccc(-c2cc(Cl)ccc2Cl)o1)N1CCN(Cc2ccccc2)CC1` the EC50 was > 10 µM (NPR2; cGMP production, positive allosteric modulator, cGMP HTRF; HEK293 expressing human GC-B; added: CNP at EC30).
For `N=C(N)NCCC[C@H](NC(=O)[C@@H]1CSSC[C@H](NC(=O)[C@H](Cc2ccc3ccccc3c2)NC(=O)[C@H](CCCNC(=N)N)NC(=O)[C@@H](N)CCCNC(=N)N)C(=O)N[C@@H](Cc2ccc(O)cc2)C(=O)N[C@@H](CCCNC(N)=O)C(=O)N[C@@H](CCCCN)C(=O)N[C@H](CCCNC(N)=O)C(=O)N2CCC[C@H]2C(=O)N[C@@H](Cc2ccc(O)cc2)C(=O)N[C@@H](CCCNC(=N)N)C(=O)N[C@@H](CCCNC(N)=O)C(=O)N1)C(N)=O`, the EC50 was 0.0875 µM (ACKR3 (Homo sapiens, UniProt P25106); β-arrestin recruitment, agonist).
`CC(C)C[C@H](NC(=O)[C@H](CC(C)C)NC(=O)[C@H](Cc1ccccc1)NC(=O)[C@@H](N)CO)C(=O)N[C@@H](CCCN=C(N)N)C(=O)N[C@@H](CC(N)=O)C(=O)O` has an EC50 of ~3 µM (F2R (Homo sapiens, UniProt P25116); ATP release, agonist; human platelets).
`CCOC(=O)CCC(NC(=O)C(NC(=O)c1c(C)nn(-c2ccc(F)cc2)c1C)C(C)C)C(=O)OCC` (stereo not drawn) has an EC50 of ~1 µM (NOD2 (Homo sapiens, UniProt Q9HC29); reporter gene, agonist).
With `N#CCCN1CCN(C(=S)c2ccc(-c3ccccc3C(F)(F)F)o2)CC1` the EC50 was > 10 µM (NPR2; cGMP production, positive allosteric modulator, cGMP HTRF; HEK293 expressing human GC-B; added: CNP at EC30).
The EC50 of `CC(=O)N(C)c1ccc(NC(=O)C(C)Oc2ccc(Cl)cc2Cl)cc1` (stereo not drawn) is reported as > 100 µM (Methoprene-tolerant protein with Taiman; reporter gene, agonist; HEK293T expressing Drosophila Met/Tai; 24 h).
`O=C(O)COc1cccc(NC(=O)c2cc(-c3cccc(F)c3)ccc2F)c1` has an EC50 of > 10 µM (PTGFR (Homo sapiens, UniProt P43088); calcium signal, agonist, fluorescence).
For `C/C(=C\CC[C@@]1(C)[C@@H]2C=C(CO)CC[C@@H]21)CO` (racemic), the EC50 was 2.9 ± 0.7 µM (CatSper channel complex (Homo sapiens, UniProt Q7RTX7+Q86XQ3+Q8NEC5+Q96P56); human cells).
For `Cc1cc(C(=O)Cn2cc(C(F)(F)F)ccc2=O)c(C)n1Cc1ccccc1`, the EC50 was 0.78 µM (S1PR2 (Homo sapiens, UniProt O95136); reporter gene, agonist).
`CC1(CO)CCCC2(C)C1CCC1(C)c3cocc3CCC12` (stereo not drawn) gave an EC50 of ~0.5 µM (PGR (Homo sapiens, UniProt P06401); binding, fluorescence polarization competition; ligand-binding domain).
`S=C(c1ccc(-c2cc(Cl)ccc2Cl)o1)N1CCN(CCc2ccccn2)CC1` has an EC50 of 1.2 µM (NPR2; cGMP production, positive allosteric modulator, cGMP HTRF; HEK293 expressing human GC-B; added: CNP at EC30).
With `O=C(C1CC=CCC1)N1CCC(CSCc2ccco2)CC1` (stereo not drawn) the EC50 was > 100 µM (Methoprene-tolerant protein with Taiman; reporter gene, agonist; HEK293T expressing Drosophila Met/Tai; 24 h).
`CC[C@H](C)[C@H](NC(=O)CNC(=O)[C@H](CC(=O)O)NC(=O)[C@H](CO)NC(=O)Cc1cccnc1)C(=O)N[C@@H](Cc1ccccc1)C(=O)N[C@H](C(=O)N[C@@H](CC(=O)O)C(=O)N[C@@H](CO)C(=O)N[C@@H](Cc1ccc(O)cc1)C(=O)N[C@@H](CO)C(=O)N[C@@H](CCCNC(=N)N)C(=O)N[C@@H](Cc1ccc(O)cc1)C(=O)N[C@@H](CCCNC(=N)N)C(=O)N[C@@H](CCCCN)C(=O)N[C@@H](CCC(N)=O)C(=O)N[C@@H](CCSC)C(=O)N[C@@H](C)C(=O)N[C@H](C(=O)N[C@@H](CCCCN)C(=O)N[C@@H](CCCCN)C(=O)N[C@@H](C)C(=O)N[C@@H](CC(C)C)C(=O)N[C@@H](C)C(=O)N[C@@H](C)C(=O)N[C@H](C(=O)N[C@@H](CC(C)C)C(=O)NCC(=O)N[C@@H](CCCCN)C(=O)N[C@@H](CCCNC(=N)N)C(=O)N[C@@H](Cc1ccc(O)cc1)C(=O)N[C@@H](CCCCN)C(=O)N[C@@H](CCC(N)=O)C(=O)N[C@@H](CCCNC(=N)N)C(=O)N[C@H](C(=O)N[C@@H](CCCCN)C(=O)N[C@@H](CC(N)=O)C(=O)N[C@@H](CCCCN)C(N)=O)C(C)C)C(C)C)C(C)C)[C@@H](C)O` has an EC50 of 0.126 ± 0.006 µM (VIPR2 (Homo sapiens, UniProt P41587); cAMP production, agonist; PANC-1 transfected with receptor).

Excerpt of the above:
`CCOC(=O)CCC(NC(=O)C(NC(=O)c1c(C)nn(-c2ccc(F)cc2)c1C)C(C)C)C(=O)OCC` (stereo not drawn) has an EC50 of ~1 µM (NOD2 (Homo sapiens, UniProt Q9HC29); reporter gene, agonist).
For `C/C(=C\CC[C@@]1(C)[C@@H]2C=C(CO)CC[C@@H]21)CO` (racemic), the EC50 was 2.9 ± 0.7 µM (CatSper channel complex (Homo sapiens, UniProt Q7RTX7+Q86XQ3+Q8NEC5+Q96P56); human cells).
